Measured values pooled from the literature.
Each line is one published result; not all experiments were run side by side. ± gives the spread as reported. Values after ≈ are worked out from the molar mass of the structure shown.

Molecule	test	test system	setting	how to read	endpoint	result
Cc1ccc(C(=O)N(C(=O)c2ccc(C)cc2)C(=S)N2N=C(c3ccc(Br)cc3)CC2c2ccc(F)cc2)cc1 (stereo not shown)	DPPH scavenging, absorbance				IC50	106 µM
O=C(O)/C=C/c1ccc(O)c(O)c1	DPPH	ethanol	20 µM, 30 min, room temperature		radical scavenging	72%
neuropeptide Y	mean arterial pressure	rat Sprague Dawley urethane-anaesthetized	intravenous, 5 nmol		time to peak response	2.7 ± 0.2 min
CC(C)(O)CNc1nc(Nc2ccnc(C(F)(F)F)c2)nc(-c2cccc(C(F)(F)F)n2)n1	item: 2-hydroxyglutarate	human newly diagnosed mIDH AML	oral, 100 mg once daily, induction cycle 1 day 8, together with: induction chemotherapy		plasma 2-HG trough reduction	82.8%
Cc1cnc(-c2ccnc(C(C)(C)O)n2)cc1-n1c(C)cc(OCc2ncc(F)cc2F)c(Cl)c1=O	TNF-α release, inhibitor	human, whole blood, ex vivo	plasma concentration, together with: LPS		IC80	0.0626 µg/mL (≈ 0.122 µM)
COc1ccc(-c2nc3ccccc3s2)cc1OCc1nnc(-c2c(C)cccc2C)o1	hind limb tonic extension	albino mouse, MES-induced seizure	ip, 4.0 h		minimal effective dose	300 mg/kg
C[C@H]1C[C@H]2CSC(N)=N[C@@]2(c2nc(NC(=O)c3ccc(OC(F)F)cn3)cs2)CO1	item: CSF Aβx-40	healthy adults	125 mg once daily, 14 days, day 15	relative to: placebo-adjusted baseline	change from baseline	-78.9%
COc1ccc(-c2nnc(COc3cc(-c4nc5ccccc5s4)ccc3OC)o2)cc1	seizure protection	albino mouse, scPTZ-induced seizure	ip, 0.5 h		minimal effective dose	300 mg/kg
insulin aspart	euglycaemic clamp	type 1 diabetes patients	subcutaneous, 0.2 U/kg single, 0-60 min, antibody quartile 4, 15.84-66.94 %B/T		AUC glucose infusion rate	123 mg/kg
CC(C)[C@@H]1CC[C@@H](C)C[C@H]1O		mice	subcutaneous, 100 to 800 mg/kg	relative to: saline	time to return to control activity	≤ 60 min
CC(C)(O)c1ccccc1-c1ccc2[nH]c(/C=C/c3ccc(C(F)(F)F)cc3)nc2c1		human	max heat pain tolerance reached		plasma concentration	> 100 ng/mL
COCCc1ccc(OCC(O)CNC(C)C)cc1 (stereo not shown)		rats, adrenaline arrhythmia, plasma	intragastric, 2.57 g/kg daily, 14 days		SOD activity	164 ± 12 U/L
O=C1CCc2ccc(OCc3nnc(SCc4ccc(C(F)(F)F)cc4)o3)cc2N1	forced swim test	mouse	40 mg/kg, 0.5 h	relative to: vehicle	decrease in immobility	52.1%
COc1ccc(-c2nc3ccccc3s2)cc1OCc1nnc(-c2ccc([N+](=O)[O-])cc2)o1	hind limb tonic extension	albino mouse, MES-induced seizure	ip, 4.0 h		minimal effective dose	30 mg/kg
zoledronic acid		human	5 mg, together with: calcitonin 4 units/kg 2 doses		serum calcium	12.8 mg/dL
CC(C)c1nc(CN(C)C(=O)N[C@H](C(=O)N[C@@H](Cc2ccccc2)C[C@H](O)[C@H](Cc2ccccc2)NC(=O)OCc2cncs2)C(C)C)cs1	lopinavir intrinsic clearance, interaction modelling	human	dose not given, unbound cpd concentration percentile		inhibition	-3 to 11%
COc1ccc(-c2nc3ccccc3s2)cc1OCc1nnc(-c2ccc(N)cc2)o1	hind limb tonic extension	albino mouse, MES-induced seizure	ip, 0.5 h		minimal effective dose	30 mg/kg
O=C1c2c(O)cc(O)cc2O[C@H](c2cc(O)c(O)c(O)c2)[C@H]1O	patch clamp	rat, hippocampal dentate granule cells	oral, 1 mg/kg, 48 h after withdrawal, together with: ethanol 5 g/kg gavage, bath ethanol 60 mM		tonic GABA-A current	60 ± 2.2 pA
CC1CCc2c1ccc1c2ccc2ccccc21 (stereo not shown)	adrenal apoplexy prevention	rat	oral, together with: 7,12-DMBA 5 mg i.v.		non-protective dose	0.5 mg

A few entries again:
Molecule	test	test system	setting	how to read	endpoint	result
CC(C)(O)CNc1nc(Nc2ccnc(C(F)(F)F)c2)nc(-c2cccc(C(F)(F)F)n2)n1	item: 2-hydroxyglutarate	human newly diagnosed mIDH AML	oral, 100 mg once daily, induction cycle 1 day 8, together with: induction chemotherapy		plasma 2-HG trough reduction	82.8%
insulin aspart	euglycaemic clamp	type 1 diabetes patients	subcutaneous, 0.2 U/kg single, 0-60 min, antibody quartile 4, 15.84-66.94 %B/T		AUC glucose infusion rate	123 mg/kg
O=C1c2c(O)cc(O)cc2O[C@H](c2cc(O)c(O)c(O)c2)[C@H]1O	patch clamp	rat, hippocampal dentate granule cells	oral, 1 mg/kg, 48 h after withdrawal, together with: ethanol 5 g/kg gavage, bath ethanol 60 mM		tonic GABA-A current	60 ± 2.2 pA
